Measured values collected from several papers.
Values joined by “and” are separate records of one study, mostly repeats; a detail may differ. ± marks the error that the study gave.

CC[C@H](C)[C@H](NC(=O)CN)C(=O)N[C@@H](Cc1c[nH]c2ccccc12)C(=O)N[C@@H](CC(=O)O)C(=O)N[C@@H](CCSC)C(=O)N[C@H](C(=O)N[C@@H](CCCNC(=N)N)C(=O)N[C@@H](CCCCN)C(=O)N[C@H](C(=O)N[C@@H](CCCNC(=N)N)C(=O)N[C@H](C(=O)N[C@H](C(=O)N[C@H](C(=O)N[C@@H](CCCNC(=N)N)C(=O)N[C@@H](CCCCN)C(=O)N[C@@H](C)C(=O)N[C@@H](CCCCN)C(=O)N[C@@H](CCC(N)=O)C(=O)N[C@H](C(=O)N[C@@H](CCCCN)C(=O)N[C@H](C(=O)N[C@@H](Cc1ccccc1)C(=O)N[C@H](C(=O)N[C@@H](CC(N)=O)C(=O)NCC(=O)N[C@@H](CCCCN)C(=O)NCC(=O)N[C@H](C(=O)N[C@@H](CCC(N)=O)C(=O)O)C(C)C)[C@@H](C)CC)[C@@H](C)O)[C@@H](C)CC)[C@@H](C)CC)C(C)C)[C@@H](C)O)C(C)C)[C@@H](C)CC
IC50 (HUVEC; cytotoxicity, MTT; 24 h, 37 °C): 13.1 µM

Cc1cc(C(C)(C)c2ccc(O)c(C)c2)ccc1O
late apoptotic cells (HepG2 spheroids; annexin V-FITC/PI flow cytometry; 0.10 µM, 96 h): 29.3 ± 7.85%

CC(C)C[C@H](NC(=O)[C@H](CCCNC(=N)N)NC(=O)[C@H](Cc1c[nH]c2ccccc12)NC(=O)[C@H](CCCNC(=N)N)NC(=O)[C@H](Cc1c[nH]c2ccccc12)NC(=O)[C@H](Cc1c[nH]c2ccccc12)NC(=O)[C@H](Cc1c[nH]c2ccccc12)NC(=O)[C@H](CCCNC(=N)N)NC(=O)[C@H](Cc1c[nH]c2ccccc12)NC(=O)[C@H](CCCNC(=N)N)NC(=O)CN)C(N)=O
LC50 (PK-15): 93.5 µM

O=S(=O)(c1ccc(O)cc1)c1ccc(O)cc1
late apoptotic cells (HepG2 spheroids, dissociated; annexin V-FITC/PI flow cytometry; 10 µM, 96 h): 37.2 ± 1.8%

CO[C@H]1C[C@H](O[C@H]2CC[C@]3(C)[C@H]4CC[C@]5(C)[C@@H](C6=CC(=O)OC6)CC[C@]5(O)[C@@H]4CC[C@]3(O)C2)O[C@H](C)[C@H]1O[C@@H]1O[C@H](CO)[C@@H](O)[C@H](O)[C@H]1O
CC50 (PH5CH8 hepatocytes; high-content cell count; 72 h): 0.039 µM

Cn1c(C(=O)Nc2ccc3c(c2)OCCO3)cc2c(=O)n3ccccc3nc21
viability (Vero; MTT; 6.3 µM, 24 (unit not given)): 65.5%

N[C@@H](CC(=O)N1CCN(C(c2ccc(F)cc2)c2ccc(F)cc2)CC1)C(=O)N1Cc2ccccc2C1
cytotoxic concentration (AML cell lines; cell viability, CellTiter-Glo): > 10 µM

Oc1ccc(C2(c3ccc(O)cc3)c3ccccc3-c3ccccc32)cc1
late apoptotic cells (HepG2 spheroids, dissociated; annexin V-FITC/PI flow cytometry; 40 µM, 24 h): 9.02 ± 1.91%

CC(=O)c1cccc(NC(=O)c2cc3c(=O)n4ccccc4nc3n2C)c1
viability (Vero; MTT; 1.6 µM, 24 (unit not given)): 81.1%

Oc1ccc(C(c2ccc(O)cc2)(C(F)(F)F)C(F)(F)F)cc1
necrotic cells (HepG2 spheroids; annexin V-FITC/PI flow cytometry; 40 µM, 24 h): 6.66 ± 2.67%

CC(=N)S
viability (THLE-2; MTT; 400 µM, 96 h, 2D monolayer culture): 47.7%

Cc1cc(C)c(/C=C/c2nc(N)[nH]c(=O)c2Br)c(C)c1
minimum cytotoxic concentration (HeLa; cell morphology alteration): 100 µM

C=C1CC[C@@H]2[C@](C)(CO)[C@H](O)CC[C@@]2(C)[C@@H]1C/C=C1/C(=O)OC[C@H]1O
IC10 (AREc32; cell confluency, imaging; 24 h): 95 µM

C=C1C(=O)[C@]23[C@H](O)[C@H]1CC[C@H]2[C@@]12CO[C@]3(O)[C@@H](O)[C@@H]1C(C)(C)CC[C@@H]2O
maximum tolerated dose (THP-1 ASC-GFP monocytes; MTT; 24 h): 3.11 µg/mL

CC1(C(=O)O)C2CCC(O2)C1(C)C(=O)O (stereo not shown)
IC50 (Plasmodium falciparum; GB4): 3.16 µM

O=c1cc(-c2ccc(O)cc2)oc2cc(O)cc(O)c12
IC50 (uninduced SH-SY5Y Aβ-GFP cells; cytotoxicity, MTT; 24 h): 72 µM

N=C(N)NCCC[C@H](NC(=O)CN)C(=O)N[C@@H](Cc1c[nH]c2ccccc12)C(=O)N[C@@H](CCCNC(=N)N)C(=O)N[C@@H](Cc1c[nH]c2ccccc12)C(=O)N[C@@H](Cc1c[nH]c2ccccc12)C(=O)N[C@@H](Cc1c[nH]c2ccccc12)C(=O)N[C@@H](CCCNC(=N)N)C(=O)N[C@@H](Cc1c[nH]c2ccccc12)C(=O)N[C@@H](CCCNC(=N)N)C(=O)N[C@@H](Cc1ccccc1)C(N)=O
LC50 (PK-15): 103 µM

C[C@@H]1CC[C@H]2[C@@H](C)C(=O)O[C@@H]3O[C@@]4(C)CC[C@@H]1[C@]32OO4
IC50 (Plasmodium falciparum; cell growth; W2): 0.011 µM

CC(C)C[C@H](NC(=O)[C@H](C)NC(=O)[C@@H](NC(=O)[C@H](CCCNC(=N)N)NC(=O)[C@H](CC(C)C)NC(=O)[C@H](Cc1c[nH]c2ccccc12)NC(=O)[C@@H]1CCCN1C(=O)[C@@H](N)CCCCN)C(C)C)C(=O)N[C@@H](CS)C(=O)N1CCC[C@H]1C(=O)NCC(=O)O
viability (H9c2; WST-1; 256 µM, 24 h): 78.2% and 86.4% and 91%

CC(c1ccccc1)(c1ccc(O)cc1)c1ccc(O)cc1
early apoptotic cells (HepG2 spheroids, dissociated; annexin V-FITC/PI flow cytometry; 0.10 µM, 96 h): 5.85 ± 2.72%

COc1cc2c(OCCCN3CCOCC3)c3c(c(-c4ccc5c(c4)OCO5)c2cc1OC)C(=O)OC3
CC50 (HeLa; 24 h): 36.6 ± 18.8 µM

CC[C@H](C)[C@H](NC(=O)[C@H](CCCNC(=N)N)NC(=O)[C@@H](N)C(C)C)C(=O)N[C@@H](CO)C(=O)NCC(=O)N[C@@H](CCCNC(=N)N)C(=O)NCC(=O)N[C@@H](Cc1ccccc1)C(=O)N[C@@H](CS)C(=O)N[C@H](C(=O)N[C@@H](CCCCN)C(=O)N[C@@H](CCSC)C(=O)N[C@@H](Cc1ccccc1)C(=O)N[C@@H](Cc1ccc(O)cc1)C(=O)N[C@H](C(=O)N[C@@H](CCCCN)C(=O)N1CCC[C@H]1C(=O)N[C@H](C(=O)N[C@@H](CCCCN)C(=O)N[C@@H](Cc1ccc(O)cc1)C(=O)N[C@@H](CCCCN)C(=O)NCC(=O)N1CCC[C@H]1C(=O)N[C@H](C(=O)N[C@@H](CCCCN)C(=O)N[C@@H](CCCCN)C(=O)NCC(=O)N[C@@H](CCC(=O)O)C(=O)N[C@@H](CCCCN)C(=O)N[C@@H](CC(C)C)C(=O)NCC(=O)N[C@H](C(=O)N[C@@H](CC(C)C)C(=O)N[C@@H](CC(C)C)C(=O)N1CCC[C@H]1C(=O)N[C@@H](CC(C)C)C(=O)N[C@@H](CCC(N)=O)C(=O)N[C@@H](CCCCN)C(=O)N[C@H](C(=O)N[C@@H](Cc1ccc(O)cc1)C(=O)O)C(C)C)[C@@H](C)O)[C@@H](C)CC)[C@@H](C)CC)[C@@H](C)CC)C(C)C
CC50 (PMA-differentiated THP-1; cell viability, MTT; 24 h): 45.3 µM

C[S+](C)[O-]
lowest significantly cytotoxic concentration (U138; concentration not given, 4 days; baseline: mock): ≥ 1%

Cc1cccn2c(=O)c3cc(C(=O)Nc4ccc(N(C)C)cc4)n(C)c3nc12
viability (Vero; MTT; 6.3 µM, 24 (unit not given)): 69.4%

CC[C@H](C)[C@H](NC(=O)[C@H](CC(C)C)NC(=O)[C@@H]1CCCN1C(=O)[C@@H]1CCCN1C(=O)[C@H](CCCCN)NC(=O)[C@H](CO)NC(=O)[C@@H](NC(=O)[C@@H](NC(=O)[C@H](CC(=O)O)NC(=O)[C@H](CC(C)C)NC(=O)[C@H](CCCCN)NC(=O)[C@H](Cc1ccc(O)cc1)NC(=O)[C@H](CCSC)NC(=O)[C@H](CCCCN)NC(=O)[C@@H](N)[C@@H](C)O)C(C)C)C(C)C)C(=O)N[C@@H](CC(N)=O)C(=O)NCC(=O)N[C@@H](CC(C)C)C(=O)N[C@@H](Cc1ccc(O)cc1)C(=O)N[C@H](C(=O)N[C@@H](CC(N)=O)C(=O)N[C@@H](CCCNC(=N)N)C(=O)N[C@H](C(=O)N[C@H](C(=O)N[C@H](C(=O)N[C@@H](CCCCN)C(=O)N[C@@H](C)C(=O)N[C@H](C(=O)N[C@@H](C)C(=O)N[C@H](C(=O)N[C@@H](CCCNC(=N)N)C(=O)N[C@@H](Cc1c[nH]cn1)C(=O)N[C@@H](CO)C(=O)N[C@@H](CCCCN)C(=O)N[C@@H](CCCCN)C(=O)N[C@@H](Cc1c[nH]cn1)C(=O)N[C@@H](Cc1ccccc1)C(=O)O)C(C)C)[C@@H](C)O)[C@@H](C)CC)C(C)C)[C@@H](C)O)[C@@H](C)O
CC50 (PMA-differentiated THP-1; cell viability, MTT; 24 h): 55 µM

Excerpt of the above:
CC[C@H](C)[C@H](NC(=O)[C@H](CC(C)C)NC(=O)[C@@H]1CCCN1C(=O)[C@@H]1CCCN1C(=O)[C@H](CCCCN)NC(=O)[C@H](CO)NC(=O)[C@@H](NC(=O)[C@@H](NC(=O)[C@H](CC(=O)O)NC(=O)[C@H](CC(C)C)NC(=O)[C@H](CCCCN)NC(=O)[C@H](Cc1ccc(O)cc1)NC(=O)[C@H](CCSC)NC(=O)[C@H](CCCCN)NC(=O)[C@@H](N)[C@@H](C)O)C(C)C)C(C)C)C(=O)N[C@@H](CC(N)=O)C(=O)NCC(=O)N[C@@H](CC(C)C)C(=O)N[C@@H](Cc1ccc(O)cc1)C(=O)N[C@H](C(=O)N[C@@H](CC(N)=O)C(=O)N[C@@H](CCCNC(=N)N)C(=O)N[C@H](C(=O)N[C@H](C(=O)N[C@H](C(=O)N[C@@H](CCCCN)C(=O)N[C@@H](C)C(=O)N[C@H](C(=O)N[C@@H](C)C(=O)N[C@H](C(=O)N[C@@H](CCCNC(=N)N)C(=O)N[C@@H](Cc1c[nH]cn1)C(=O)N[C@@H](CO)C(=O)N[C@@H](CCCCN)C(=O)N[C@@H](CCCCN)C(=O)N[C@@H](Cc1c[nH]cn1)C(=O)N[C@@H](Cc1ccccc1)C(=O)O)C(C)C)[C@@H](C)O)[C@@H](C)CC)C(C)C)[C@@H](C)O)[C@@H](C)O
CC50 (PMA-differentiated THP-1; cell viability, MTT; 24 h): 55 µM

Cc1cc(C)c(/C=C/c2nc(N)[nH]c(=O)c2Br)c(C)c1
minimum cytotoxic concentration (HeLa; cell morphology alteration): 100 µM

CC(C)C[C@H](NC(=O)[C@H](C)NC(=O)[C@@H](NC(=O)[C@H](CCCNC(=N)N)NC(=O)[C@H](CC(C)C)NC(=O)[C@H](Cc1c[nH]c2ccccc12)NC(=O)[C@@H]1CCCN1C(=O)[C@@H](N)CCCCN)C(C)C)C(=O)N[C@@H](CS)C(=O)N1CCC[C@H]1C(=O)NCC(=O)O
viability (H9c2; WST-1; 256 µM, 24 h): 78.2% and 86.4% and 91%
